Results collected from several papers.
“And” joins repeats or separate records; there may be more than shown.
Mode: inhibitor
PIK3CA: Phosphatidylinositol 4,5-bisphosphate 3-kinase catalytic subunit alpha isoform (PIK3CA, Homo sapiens, UniProt P42336)
Sequence of UniProt P42336 (whole entry, looked up): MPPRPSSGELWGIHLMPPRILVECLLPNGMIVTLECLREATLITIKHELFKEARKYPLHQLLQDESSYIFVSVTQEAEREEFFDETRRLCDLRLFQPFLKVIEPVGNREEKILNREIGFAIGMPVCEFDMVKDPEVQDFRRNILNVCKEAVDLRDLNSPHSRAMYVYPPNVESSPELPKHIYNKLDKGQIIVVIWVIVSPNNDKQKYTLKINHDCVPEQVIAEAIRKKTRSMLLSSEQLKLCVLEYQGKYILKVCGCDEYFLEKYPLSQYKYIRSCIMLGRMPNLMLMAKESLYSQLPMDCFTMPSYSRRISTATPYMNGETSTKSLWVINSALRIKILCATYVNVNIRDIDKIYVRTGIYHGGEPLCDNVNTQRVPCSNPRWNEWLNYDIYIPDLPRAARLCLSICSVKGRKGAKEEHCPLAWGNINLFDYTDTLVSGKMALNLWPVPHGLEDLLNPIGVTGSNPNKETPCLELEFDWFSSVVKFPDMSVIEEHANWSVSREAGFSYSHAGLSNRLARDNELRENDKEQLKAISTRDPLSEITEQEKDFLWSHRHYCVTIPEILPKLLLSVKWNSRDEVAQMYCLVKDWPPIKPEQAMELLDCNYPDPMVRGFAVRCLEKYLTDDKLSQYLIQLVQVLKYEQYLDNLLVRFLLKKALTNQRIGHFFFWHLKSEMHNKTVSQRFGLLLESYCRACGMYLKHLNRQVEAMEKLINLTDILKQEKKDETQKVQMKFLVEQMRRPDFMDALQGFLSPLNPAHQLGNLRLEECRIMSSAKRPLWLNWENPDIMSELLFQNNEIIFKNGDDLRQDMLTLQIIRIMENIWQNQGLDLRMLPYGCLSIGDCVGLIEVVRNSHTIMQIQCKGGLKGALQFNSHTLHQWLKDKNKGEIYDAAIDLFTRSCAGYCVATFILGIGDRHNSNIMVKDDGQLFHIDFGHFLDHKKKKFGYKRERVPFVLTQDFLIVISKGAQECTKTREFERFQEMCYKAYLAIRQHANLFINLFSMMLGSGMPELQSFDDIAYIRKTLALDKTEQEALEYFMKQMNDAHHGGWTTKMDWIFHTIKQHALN

Cc1nc(N(C)c2ccc3c(c2)/C(=C/c2ccccc2C)C(=O)N3C)c2ccccc2n1
IC50 (PIK3CA; enzyme activity, ADP detection): 33.7 nM

O=C(CCc1ccco1)N1C(=O)C2(NC(c3ccc(F)cc3)C3(C(=O)Nc4ccccc43)N2Cc2ccc(F)cc2)c2ccccc21 (centres unmarked)
IC50 (PIK3CA; enzyme activity, ADP detection): 889 nM

CCN(CC)CC(=O)Nc1cccc(-n2cc(-c3ccc4ccc(-c5cn(-c6cccc(NC(=O)CN(CC)CC)c6)nn5)cc4c3)nn2)c1
IC50 (PIK3CA; enzyme activity): > 10000 nM

Cc1nc(N(C)c2ccc3c(c2)/C(=C/c2cn(C)c4ccccc24)C(=O)N3C)c2ccccc2n1
IC50 (PIK3CA; enzyme activity, ADP detection): 71.7 nM

Cc1nn(-c2cccc(N)c2)c(=O)c2cnc(Nc3ccc(N4CCNCC4)cc3)nc12
IC50 (Phosphatidylinositol 4,5-bisphosphate 3-kinase catalytic subunit alpha isoform, with p85 alpha (PIK3CA, Homo sapiens, UniProt P42336); with PIK3R1 (p85α)): > 10000 nM

Cc1nc(N(C)c2ccc3c(c2)/C(=C/c2ccccc2)C(=O)N3C)c2ccccc2n1
IC50 (PIK3CA; enzyme activity, ADP detection): 25 nM

O=C1NC(=S)S/C1=C\c1ccc(-c2cc([N+](=O)[O-])ccc2O)o1
IC50 (PIK3CA; enzyme activity, radiometric): 4000 nM

CC(=O)N1c2ccc(-c3ccc(CNC(=O)c4cn5cc(-c6cnc(N)nc6)nc(N6CCOCC6)c5n4)cc3)cc2CC[C@@H]1C
IC50 (PIK3CA; kinase activity, Kinase-Glo): 98 nM and 98.2 nM

O=C1Nc2ccccc2C12NC(c1ccc(Cl)c(Cl)c1)C1(C(=O)Nc3ccccc31)N2Cc1ccc(Cl)c(Cl)c1 (centres unmarked)
IC50 (PIK3CA; enzyme activity, ADP detection): 685 nM

O=C1NC(=S)S/C1=C\c1ccc2c(c1)OCO2
IC50 (PIK3CA; enzyme activity, radiometric): 270 nM

COc1ccc(CN2C3(NC(c4ccc(OC)cc4)C24C(=O)Nc2ccccc24)C(=O)Nc2ccccc23)cc1 (centres unmarked)
IC50 (PIK3CA; enzyme activity, ADP detection): 964 nM

Cc1cc(NC2CCN(C)CC2)ccc1-c1cc2c(N3CCC[C@H](C(=O)NCc4ccc(OC(F)(F)F)cc4)C3)ncnc2[nH]1
IC50 (PIK3CA; enzyme activity, ATP luminescence): > 8000 nM

O=C1C(Nc2ccc(Cl)cc2)c2ccccc2N1Cc1ccccc1 (centres unmarked)
IC50 (PIK3CA; enzyme activity, ADP detection): 29.4 nM

Cc1nc(Nc2ccc3c(c2)/C(=C/c2cn(C)c4ccccc24)C(=O)N3C)c2ccccc2n1
IC50 (PIK3CA; enzyme activity, ADP detection): 49.5 nM

Some of these lines once more:
Cc1cc(NC2CCN(C)CC2)ccc1-c1cc2c(N3CCC[C@H](C(=O)NCc4ccc(OC(F)(F)F)cc4)C3)ncnc2[nH]1
IC50 (PIK3CA; enzyme activity, ATP luminescence): > 8000 nM
